Results from different studies.
Numbered parts are unrelated; each lists some results of a single study.
UniProt P06239, sequence (whole entry, looked up): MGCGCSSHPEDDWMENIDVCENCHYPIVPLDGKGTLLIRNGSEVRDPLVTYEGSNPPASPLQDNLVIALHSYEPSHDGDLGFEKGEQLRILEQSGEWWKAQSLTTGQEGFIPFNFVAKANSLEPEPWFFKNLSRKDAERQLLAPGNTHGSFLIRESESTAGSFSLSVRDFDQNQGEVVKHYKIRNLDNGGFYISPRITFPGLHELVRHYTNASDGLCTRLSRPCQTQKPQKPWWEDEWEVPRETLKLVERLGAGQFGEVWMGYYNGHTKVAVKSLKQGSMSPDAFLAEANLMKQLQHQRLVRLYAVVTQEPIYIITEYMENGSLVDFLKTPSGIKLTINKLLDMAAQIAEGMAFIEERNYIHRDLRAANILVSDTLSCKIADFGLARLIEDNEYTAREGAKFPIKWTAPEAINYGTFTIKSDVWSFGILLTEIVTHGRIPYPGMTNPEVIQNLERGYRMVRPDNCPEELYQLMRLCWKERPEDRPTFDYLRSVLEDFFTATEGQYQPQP
UniProt Q99683, sequence (whole entry, looked up): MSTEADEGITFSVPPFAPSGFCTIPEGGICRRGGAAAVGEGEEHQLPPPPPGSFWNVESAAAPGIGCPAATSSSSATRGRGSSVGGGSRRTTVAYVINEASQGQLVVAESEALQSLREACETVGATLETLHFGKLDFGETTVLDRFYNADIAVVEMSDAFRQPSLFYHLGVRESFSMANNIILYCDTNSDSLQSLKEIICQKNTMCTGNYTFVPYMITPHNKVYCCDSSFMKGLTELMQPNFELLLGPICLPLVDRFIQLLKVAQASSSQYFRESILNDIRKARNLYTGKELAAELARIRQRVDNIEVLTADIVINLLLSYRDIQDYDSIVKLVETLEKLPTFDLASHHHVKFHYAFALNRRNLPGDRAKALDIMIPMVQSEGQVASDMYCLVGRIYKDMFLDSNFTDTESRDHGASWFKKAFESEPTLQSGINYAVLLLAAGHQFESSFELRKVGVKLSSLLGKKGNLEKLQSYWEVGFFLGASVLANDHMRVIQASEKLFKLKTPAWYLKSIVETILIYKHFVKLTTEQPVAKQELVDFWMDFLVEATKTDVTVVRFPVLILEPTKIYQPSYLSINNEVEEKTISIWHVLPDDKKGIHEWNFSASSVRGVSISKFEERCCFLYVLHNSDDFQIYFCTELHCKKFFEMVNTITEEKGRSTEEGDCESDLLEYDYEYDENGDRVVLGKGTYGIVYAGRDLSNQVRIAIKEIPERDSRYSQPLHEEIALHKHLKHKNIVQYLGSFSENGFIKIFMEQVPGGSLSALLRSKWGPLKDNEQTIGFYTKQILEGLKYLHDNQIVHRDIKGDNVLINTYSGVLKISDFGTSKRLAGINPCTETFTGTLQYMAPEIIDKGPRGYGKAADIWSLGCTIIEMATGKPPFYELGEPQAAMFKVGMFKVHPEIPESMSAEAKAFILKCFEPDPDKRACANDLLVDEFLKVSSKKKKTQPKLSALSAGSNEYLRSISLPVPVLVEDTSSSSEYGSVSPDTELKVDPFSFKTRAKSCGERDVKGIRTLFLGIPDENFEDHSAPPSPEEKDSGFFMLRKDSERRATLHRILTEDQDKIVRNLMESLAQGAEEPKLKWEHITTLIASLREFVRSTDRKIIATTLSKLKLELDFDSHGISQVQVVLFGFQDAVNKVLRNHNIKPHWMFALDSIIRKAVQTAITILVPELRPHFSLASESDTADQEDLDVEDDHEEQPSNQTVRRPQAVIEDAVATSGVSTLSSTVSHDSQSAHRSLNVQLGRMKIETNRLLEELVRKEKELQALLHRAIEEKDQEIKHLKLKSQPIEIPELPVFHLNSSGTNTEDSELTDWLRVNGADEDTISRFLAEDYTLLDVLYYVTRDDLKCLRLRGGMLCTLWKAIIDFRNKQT
UniProt P27361, sequence (whole entry, looked up): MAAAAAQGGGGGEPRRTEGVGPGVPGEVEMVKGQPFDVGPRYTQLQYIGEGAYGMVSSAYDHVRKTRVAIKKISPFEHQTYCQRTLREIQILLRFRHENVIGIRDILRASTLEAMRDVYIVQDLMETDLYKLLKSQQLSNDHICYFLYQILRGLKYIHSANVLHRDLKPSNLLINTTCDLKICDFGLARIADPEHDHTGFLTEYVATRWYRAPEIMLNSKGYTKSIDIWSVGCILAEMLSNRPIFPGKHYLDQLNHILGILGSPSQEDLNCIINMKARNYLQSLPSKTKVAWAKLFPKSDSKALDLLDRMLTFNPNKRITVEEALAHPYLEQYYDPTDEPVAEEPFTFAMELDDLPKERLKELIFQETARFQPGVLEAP
UniProt Q9UHD2, sequence (whole entry, looked up): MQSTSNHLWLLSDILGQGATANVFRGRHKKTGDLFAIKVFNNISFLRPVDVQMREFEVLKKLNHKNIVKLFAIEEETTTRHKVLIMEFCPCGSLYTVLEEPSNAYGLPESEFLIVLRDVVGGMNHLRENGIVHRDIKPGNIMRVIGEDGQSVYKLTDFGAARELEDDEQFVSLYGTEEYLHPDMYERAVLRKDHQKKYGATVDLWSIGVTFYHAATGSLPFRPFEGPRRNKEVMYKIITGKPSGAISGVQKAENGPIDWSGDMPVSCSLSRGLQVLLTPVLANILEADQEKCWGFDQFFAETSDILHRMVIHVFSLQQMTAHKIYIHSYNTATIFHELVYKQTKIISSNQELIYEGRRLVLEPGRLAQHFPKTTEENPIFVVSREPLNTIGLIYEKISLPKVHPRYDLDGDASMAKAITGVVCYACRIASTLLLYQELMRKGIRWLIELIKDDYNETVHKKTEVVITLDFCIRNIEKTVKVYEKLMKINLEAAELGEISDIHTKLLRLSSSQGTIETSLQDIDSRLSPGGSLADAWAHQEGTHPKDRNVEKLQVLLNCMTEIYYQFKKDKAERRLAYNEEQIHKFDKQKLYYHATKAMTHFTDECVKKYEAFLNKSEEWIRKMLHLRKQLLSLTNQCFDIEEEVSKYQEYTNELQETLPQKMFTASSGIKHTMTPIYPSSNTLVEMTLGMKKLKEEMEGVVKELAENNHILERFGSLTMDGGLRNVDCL
UniProt P36896, sequence (whole entry, looked up): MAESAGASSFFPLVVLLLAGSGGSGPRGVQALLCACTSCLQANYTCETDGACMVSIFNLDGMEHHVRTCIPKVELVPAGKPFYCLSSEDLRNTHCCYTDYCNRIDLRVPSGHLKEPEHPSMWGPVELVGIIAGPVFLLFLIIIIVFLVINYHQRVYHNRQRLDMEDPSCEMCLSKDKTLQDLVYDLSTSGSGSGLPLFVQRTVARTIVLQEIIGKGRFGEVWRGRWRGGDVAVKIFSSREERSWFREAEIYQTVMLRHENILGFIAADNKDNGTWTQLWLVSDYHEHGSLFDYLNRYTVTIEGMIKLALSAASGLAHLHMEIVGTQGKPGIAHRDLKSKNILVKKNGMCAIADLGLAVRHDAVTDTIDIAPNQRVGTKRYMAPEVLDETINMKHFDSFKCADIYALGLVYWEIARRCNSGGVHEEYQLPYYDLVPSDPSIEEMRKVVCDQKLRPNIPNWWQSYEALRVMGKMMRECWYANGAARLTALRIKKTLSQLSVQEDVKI
UniProt P29320, sequence (whole entry, looked up): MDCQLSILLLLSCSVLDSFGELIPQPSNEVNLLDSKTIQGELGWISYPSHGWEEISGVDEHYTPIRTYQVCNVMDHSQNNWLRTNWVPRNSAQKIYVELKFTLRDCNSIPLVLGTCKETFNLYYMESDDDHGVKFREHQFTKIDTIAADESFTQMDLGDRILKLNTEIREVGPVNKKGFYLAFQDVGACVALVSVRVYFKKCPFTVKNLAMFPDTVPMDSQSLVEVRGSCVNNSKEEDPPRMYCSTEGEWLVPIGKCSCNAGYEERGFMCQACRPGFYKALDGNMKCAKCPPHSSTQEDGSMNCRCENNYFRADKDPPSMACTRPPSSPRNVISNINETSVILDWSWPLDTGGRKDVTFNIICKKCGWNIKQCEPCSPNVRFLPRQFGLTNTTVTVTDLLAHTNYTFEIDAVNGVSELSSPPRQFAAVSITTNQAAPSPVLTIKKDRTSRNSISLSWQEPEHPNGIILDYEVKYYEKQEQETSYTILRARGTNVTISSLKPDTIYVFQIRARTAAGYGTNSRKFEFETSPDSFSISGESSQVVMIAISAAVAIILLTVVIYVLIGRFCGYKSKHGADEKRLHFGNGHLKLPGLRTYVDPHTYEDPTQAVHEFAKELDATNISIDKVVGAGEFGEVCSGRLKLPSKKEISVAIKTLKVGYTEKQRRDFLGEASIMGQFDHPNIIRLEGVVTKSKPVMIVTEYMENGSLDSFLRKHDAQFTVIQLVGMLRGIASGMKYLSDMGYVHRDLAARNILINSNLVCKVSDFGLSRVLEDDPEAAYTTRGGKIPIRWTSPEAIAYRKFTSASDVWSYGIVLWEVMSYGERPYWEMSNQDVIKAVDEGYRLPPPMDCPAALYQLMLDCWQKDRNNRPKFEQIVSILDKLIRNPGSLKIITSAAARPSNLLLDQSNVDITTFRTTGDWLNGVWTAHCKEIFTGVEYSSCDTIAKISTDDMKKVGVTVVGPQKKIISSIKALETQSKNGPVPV
UniProt O75914, sequence (whole entry, looked up): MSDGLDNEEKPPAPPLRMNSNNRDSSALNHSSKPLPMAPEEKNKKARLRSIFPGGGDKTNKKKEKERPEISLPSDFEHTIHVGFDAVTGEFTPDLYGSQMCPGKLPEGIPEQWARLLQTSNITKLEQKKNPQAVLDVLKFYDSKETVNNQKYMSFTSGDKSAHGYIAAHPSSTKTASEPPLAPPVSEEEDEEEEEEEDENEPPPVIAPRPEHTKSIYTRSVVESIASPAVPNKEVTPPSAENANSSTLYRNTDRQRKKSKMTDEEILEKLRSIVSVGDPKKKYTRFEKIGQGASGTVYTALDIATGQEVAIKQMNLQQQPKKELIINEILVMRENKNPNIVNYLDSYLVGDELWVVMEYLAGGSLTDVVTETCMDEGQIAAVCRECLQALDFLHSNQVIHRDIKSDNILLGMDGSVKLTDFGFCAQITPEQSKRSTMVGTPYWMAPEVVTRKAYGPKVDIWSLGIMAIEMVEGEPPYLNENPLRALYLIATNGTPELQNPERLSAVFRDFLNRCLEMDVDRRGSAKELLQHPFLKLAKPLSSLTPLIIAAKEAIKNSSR

Block 1
SMILES: O=C1NC(=O)/C(=C/c2ccc3c(c2)OC(F)(F)O3)S1
Effect on: enzyme activity
Mode: inhibitor
Tested at: 0.5 µM
Relative to: control
Quantity: remaining activity
MAPKAPK2 (Homo sapiens, UniProt P49137): 94.4%
FGFR1 (Homo sapiens, UniProt P11362): 94.3%
MAP3K14 (Homo sapiens, UniProt Q99558): 106%
MAPK3 (Homo sapiens, UniProt P27361): 91.6%
FRK (Homo sapiens, UniProt P42685): 93.4%
ACVR1B (Homo sapiens, UniProt P36896): 99.4%
TBK1 (Homo sapiens, UniProt Q9UHD2): 93.3%
TAOK2 (Homo sapiens, UniProt Q9UL54): 96.9%
WEE1 (Homo sapiens, UniProt P30291): 88.8%
MERTK (Homo sapiens, UniProt Q12866): 94.5%
EPHA3 (Homo sapiens, UniProt P29320): 97.6%
MAP3K5 (Homo sapiens, UniProt Q99683): 105%
ABL2 (Homo sapiens, UniProt P42684): 96%
LCK (Homo sapiens, UniProt P06239): 98.3%

Block 2
Cell line: A-375
Tested at: 100 µM
Time: 18 h
Quantity: viability
CN1CCc2c(c3ccccc3n2Cc2ccccc2)C1: 94.4%
CN(C)CCc1c[nH]c2ccc(C[C@H]3COC(=O)N3)cc12: 78.8%
CC1CCc2cc(F)cc3c(=O)c(C(=O)O)cn1c23 (centres unmarked): 106%
C[N+](C)(C)CCOC(N)=O: 101%
COC(=O)Nc1nc2cc(C(=O)c3ccc(F)cc3)ccc2[nH]1: 38.2%
COc1cc(C)c(/C=C/C(C)=C/C=C/C(C)=C/C(=O)O)c(C)c1C: 79.2%
NCCC(O)(P(=O)(O)O)P(=O)(O)O: 96.5%

Block 3
SMILES: CC(C)S(=O)(=O)c1ccc2nccc(Nc3ccc4sc(C5CCCC5)nc4c3)c2c1.Cl
Effect on: kinase activity
Mode: inhibitor
Tested at: 1 µM
Quantity: remaining activity
PAK3 (Homo sapiens, UniProt O75914): 95%
EPHA7 (Homo sapiens, UniProt Q15375): 104%
BTK (Homo sapiens, UniProt Q06187): 96%
SGK2 (Homo sapiens, UniProt Q9HBY8): 101%
PIK3C2A (Homo sapiens, UniProt O00443): 99%
NEK2 (Homo sapiens, UniProt P51955): 98%
TTBK1 (Homo sapiens, UniProt Q5TCY1): 101%

Block 4
SMILES: CS(=O)(=O)NCC[C@H](NC(=O)c1cncc2c1cnn2-c1ccc(F)cc1)c1ccnc(S(C)(=O)=O)c1
Tested at: 1 µM
Quantity: remaining binding
STK36 (Homo sapiens, UniProt Q9NRP7); cell-free assay, competition with immobilised ligand: 100%
EPHA8 (Homo sapiens, UniProt P29322); cell-free assay, competition with immobilised ligand: 100%
CDK19 (Homo sapiens, UniProt Q9BWU1); competition binding: 80%
AKT2 (Homo sapiens, UniProt P31751); cell-free assay, competition with immobilised ligand: 100%
SBK1 (Homo sapiens, UniProt Q52WX2); cell-free assay, competition with immobilised ligand: 96%
MAP2K1 (Homo sapiens, UniProt Q02750); cell-free assay, competition with immobilised ligand: 100%
CHUK (Homo sapiens, UniProt O15111); cell-free assay, competition with immobilised ligand: 100%
